Measured values from different studies.
Parts stem from different laboratories: compare values within a part only. “And” joins repeats or separate records; there may be more than shown.
UniProt Q13188, sequence (whole entry, looked up): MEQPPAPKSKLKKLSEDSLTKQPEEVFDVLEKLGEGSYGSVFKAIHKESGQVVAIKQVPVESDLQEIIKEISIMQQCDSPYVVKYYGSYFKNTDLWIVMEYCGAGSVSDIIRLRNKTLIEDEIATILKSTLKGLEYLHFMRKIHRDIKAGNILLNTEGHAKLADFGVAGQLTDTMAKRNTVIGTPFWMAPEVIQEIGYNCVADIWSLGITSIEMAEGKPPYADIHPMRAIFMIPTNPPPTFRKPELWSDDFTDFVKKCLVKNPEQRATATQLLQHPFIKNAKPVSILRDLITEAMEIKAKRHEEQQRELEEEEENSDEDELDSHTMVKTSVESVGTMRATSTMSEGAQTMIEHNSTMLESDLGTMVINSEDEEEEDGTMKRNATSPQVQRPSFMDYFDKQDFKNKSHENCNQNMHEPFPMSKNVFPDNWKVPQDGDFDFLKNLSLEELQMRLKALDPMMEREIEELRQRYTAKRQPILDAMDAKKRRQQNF
UniProt Q99986, sequence (whole entry, looked up): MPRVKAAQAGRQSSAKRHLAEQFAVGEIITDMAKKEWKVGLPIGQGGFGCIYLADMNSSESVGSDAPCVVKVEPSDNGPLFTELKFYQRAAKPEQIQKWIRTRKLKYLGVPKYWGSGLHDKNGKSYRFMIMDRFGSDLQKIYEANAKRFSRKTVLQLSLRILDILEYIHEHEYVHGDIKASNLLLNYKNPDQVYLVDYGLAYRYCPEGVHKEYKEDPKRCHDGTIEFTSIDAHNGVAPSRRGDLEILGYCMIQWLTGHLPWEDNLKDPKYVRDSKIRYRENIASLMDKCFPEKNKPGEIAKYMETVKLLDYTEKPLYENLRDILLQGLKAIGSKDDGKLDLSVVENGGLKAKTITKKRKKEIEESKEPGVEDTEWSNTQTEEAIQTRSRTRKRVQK
UniProt P11229, sequence (whole entry, looked up): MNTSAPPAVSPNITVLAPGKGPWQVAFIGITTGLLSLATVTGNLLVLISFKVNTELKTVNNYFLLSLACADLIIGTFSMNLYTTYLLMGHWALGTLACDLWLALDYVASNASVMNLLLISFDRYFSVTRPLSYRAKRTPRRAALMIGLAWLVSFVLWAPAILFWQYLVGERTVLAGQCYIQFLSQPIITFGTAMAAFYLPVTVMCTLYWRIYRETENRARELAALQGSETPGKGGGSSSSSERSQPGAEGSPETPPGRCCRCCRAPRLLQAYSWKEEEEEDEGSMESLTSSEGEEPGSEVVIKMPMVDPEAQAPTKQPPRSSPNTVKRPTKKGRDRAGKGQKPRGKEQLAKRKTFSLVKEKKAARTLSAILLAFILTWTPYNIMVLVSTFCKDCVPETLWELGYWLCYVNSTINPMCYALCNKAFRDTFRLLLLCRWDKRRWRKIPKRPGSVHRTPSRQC
UniProt O95747, sequence (whole entry, looked up): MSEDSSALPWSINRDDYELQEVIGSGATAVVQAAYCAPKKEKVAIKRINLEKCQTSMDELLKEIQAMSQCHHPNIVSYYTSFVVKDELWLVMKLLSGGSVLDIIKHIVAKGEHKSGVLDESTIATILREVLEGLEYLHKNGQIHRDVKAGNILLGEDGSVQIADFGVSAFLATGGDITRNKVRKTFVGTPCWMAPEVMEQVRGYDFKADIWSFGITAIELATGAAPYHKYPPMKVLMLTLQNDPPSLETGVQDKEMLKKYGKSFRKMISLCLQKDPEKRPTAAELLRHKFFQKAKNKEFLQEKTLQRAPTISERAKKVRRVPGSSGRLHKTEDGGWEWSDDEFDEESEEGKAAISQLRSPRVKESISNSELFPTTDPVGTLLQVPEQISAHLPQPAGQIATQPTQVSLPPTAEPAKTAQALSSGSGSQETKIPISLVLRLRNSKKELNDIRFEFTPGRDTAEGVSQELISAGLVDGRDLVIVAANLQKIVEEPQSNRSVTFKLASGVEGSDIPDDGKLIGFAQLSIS
UniProt O43781, sequence (whole entry, looked up): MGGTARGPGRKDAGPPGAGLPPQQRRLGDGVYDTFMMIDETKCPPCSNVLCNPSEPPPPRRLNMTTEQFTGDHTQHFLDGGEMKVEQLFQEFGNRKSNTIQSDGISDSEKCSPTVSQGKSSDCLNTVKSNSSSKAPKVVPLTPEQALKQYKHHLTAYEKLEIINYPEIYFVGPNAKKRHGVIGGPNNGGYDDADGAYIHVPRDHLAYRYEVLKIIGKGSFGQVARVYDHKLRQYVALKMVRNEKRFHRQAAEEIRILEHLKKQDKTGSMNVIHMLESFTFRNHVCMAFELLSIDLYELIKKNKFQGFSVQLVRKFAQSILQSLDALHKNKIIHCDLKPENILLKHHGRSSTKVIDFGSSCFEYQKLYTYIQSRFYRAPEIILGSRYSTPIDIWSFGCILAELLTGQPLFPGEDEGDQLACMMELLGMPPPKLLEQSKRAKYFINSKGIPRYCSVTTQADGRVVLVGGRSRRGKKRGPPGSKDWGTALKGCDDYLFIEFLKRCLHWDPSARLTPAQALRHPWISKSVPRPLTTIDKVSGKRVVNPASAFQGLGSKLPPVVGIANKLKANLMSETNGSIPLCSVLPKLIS
UniProt P28223, sequence (whole entry, looked up): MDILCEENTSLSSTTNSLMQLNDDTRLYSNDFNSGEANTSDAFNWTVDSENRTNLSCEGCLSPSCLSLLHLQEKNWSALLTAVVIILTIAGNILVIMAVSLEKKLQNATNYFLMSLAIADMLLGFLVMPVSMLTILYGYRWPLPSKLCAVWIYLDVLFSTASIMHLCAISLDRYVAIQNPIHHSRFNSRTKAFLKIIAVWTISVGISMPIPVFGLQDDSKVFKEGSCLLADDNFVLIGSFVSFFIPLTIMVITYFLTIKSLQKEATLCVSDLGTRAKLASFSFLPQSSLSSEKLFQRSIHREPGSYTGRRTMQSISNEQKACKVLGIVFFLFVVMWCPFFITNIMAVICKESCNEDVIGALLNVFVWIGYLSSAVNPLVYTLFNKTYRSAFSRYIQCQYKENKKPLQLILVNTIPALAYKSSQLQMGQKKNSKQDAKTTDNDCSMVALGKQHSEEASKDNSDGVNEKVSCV
UniProt P35372, sequence (whole entry, looked up): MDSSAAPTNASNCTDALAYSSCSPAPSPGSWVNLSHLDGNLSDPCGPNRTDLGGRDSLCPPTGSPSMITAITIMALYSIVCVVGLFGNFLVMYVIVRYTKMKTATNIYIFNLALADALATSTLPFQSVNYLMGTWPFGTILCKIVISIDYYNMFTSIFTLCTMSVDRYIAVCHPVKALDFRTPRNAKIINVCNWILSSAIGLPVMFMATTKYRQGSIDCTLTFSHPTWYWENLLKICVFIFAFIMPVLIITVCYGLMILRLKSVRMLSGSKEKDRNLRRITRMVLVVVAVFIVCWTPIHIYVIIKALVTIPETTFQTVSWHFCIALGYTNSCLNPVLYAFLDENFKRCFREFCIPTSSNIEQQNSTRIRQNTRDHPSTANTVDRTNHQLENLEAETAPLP
UniProt P16234, sequence (whole entry, looked up): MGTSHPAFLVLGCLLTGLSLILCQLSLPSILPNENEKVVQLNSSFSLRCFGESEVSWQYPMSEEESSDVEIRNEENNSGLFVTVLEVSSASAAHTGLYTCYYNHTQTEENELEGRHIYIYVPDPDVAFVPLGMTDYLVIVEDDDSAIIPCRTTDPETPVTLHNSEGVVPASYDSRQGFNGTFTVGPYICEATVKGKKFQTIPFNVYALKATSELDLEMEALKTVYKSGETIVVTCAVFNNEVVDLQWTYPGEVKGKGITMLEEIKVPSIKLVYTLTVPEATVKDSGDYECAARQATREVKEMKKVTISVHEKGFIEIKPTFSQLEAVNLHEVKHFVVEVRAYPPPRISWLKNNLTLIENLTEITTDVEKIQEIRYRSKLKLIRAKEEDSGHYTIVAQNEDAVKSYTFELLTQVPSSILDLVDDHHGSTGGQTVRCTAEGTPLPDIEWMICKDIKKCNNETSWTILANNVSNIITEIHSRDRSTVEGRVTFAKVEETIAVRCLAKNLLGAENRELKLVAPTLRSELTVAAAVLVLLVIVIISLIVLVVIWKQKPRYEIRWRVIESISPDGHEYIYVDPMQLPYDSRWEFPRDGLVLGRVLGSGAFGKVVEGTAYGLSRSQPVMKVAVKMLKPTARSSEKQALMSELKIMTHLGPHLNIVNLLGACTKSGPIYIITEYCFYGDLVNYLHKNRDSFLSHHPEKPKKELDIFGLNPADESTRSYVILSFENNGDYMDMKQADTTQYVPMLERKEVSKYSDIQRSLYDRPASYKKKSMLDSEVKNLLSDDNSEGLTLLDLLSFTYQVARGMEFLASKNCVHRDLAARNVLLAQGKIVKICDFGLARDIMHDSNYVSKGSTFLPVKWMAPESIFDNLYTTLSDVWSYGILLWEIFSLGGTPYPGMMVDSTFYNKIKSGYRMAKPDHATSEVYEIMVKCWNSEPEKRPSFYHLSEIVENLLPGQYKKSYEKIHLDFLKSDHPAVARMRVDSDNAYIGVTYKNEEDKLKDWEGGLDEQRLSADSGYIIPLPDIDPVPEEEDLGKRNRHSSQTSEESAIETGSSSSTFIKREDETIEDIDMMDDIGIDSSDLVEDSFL
UniProt Q16566, sequence (whole entry, looked up): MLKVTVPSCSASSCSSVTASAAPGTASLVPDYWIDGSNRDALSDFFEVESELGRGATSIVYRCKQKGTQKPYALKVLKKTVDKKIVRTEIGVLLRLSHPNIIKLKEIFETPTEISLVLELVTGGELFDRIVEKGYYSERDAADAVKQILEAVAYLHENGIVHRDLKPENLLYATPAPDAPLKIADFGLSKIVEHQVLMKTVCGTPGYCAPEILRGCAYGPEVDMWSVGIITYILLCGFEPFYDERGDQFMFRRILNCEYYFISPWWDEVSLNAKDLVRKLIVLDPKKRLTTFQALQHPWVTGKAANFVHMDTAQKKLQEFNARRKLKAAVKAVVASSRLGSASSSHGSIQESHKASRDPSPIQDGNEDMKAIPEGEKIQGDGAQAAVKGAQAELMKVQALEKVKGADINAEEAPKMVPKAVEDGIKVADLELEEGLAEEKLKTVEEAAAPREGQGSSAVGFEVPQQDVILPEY

Sample 1 — effect on: cell-free assay; tested at: 0.5 µM
SMILES: O=c1[nH]c2ccccc2n1C1CCN(Cc2ccc(-c3[nH]c4cc5ncnc5cc4nc3-c3ccccc3)cc2)CC1
| target | remaining signal |
| --- | --- |
| Cyclin-dependent kinase 2, with cyclin A (CDK2, Homo sapiens, UniProt P24941) | 98% |
| CAMK4 (Homo sapiens, UniProt Q16566) | 101% |
| DYRK3 (Homo sapiens, UniProt O43781) | 101% |
| PDGFRA (Homo sapiens, UniProt P16234) | 98.2% |
| OXSR1 (Homo sapiens, UniProt O95747) | 102% |
| CDC42BPA (Homo sapiens, UniProt Q5VT25) | 105% |
| DSTYK (Homo sapiens, UniProt Q6XUX3) | 104% |
| STK3 (Homo sapiens, UniProt Q13188) | 103% |
| WNK3 (Homo sapiens, UniProt Q9BYP7) | 106% |
| DYRK2 (Homo sapiens, UniProt Q92630) | 107% |
| NUAK2 (Homo sapiens, UniProt Q9H093) | 90.4% |
| GRK6 (Homo sapiens, UniProt P43250) | 88% |
| SGK2 (Homo sapiens, UniProt Q9HBY8) | 112% |
| ARAF (Homo sapiens, UniProt P10398) | 99.2% |
| MAP4K5 (Homo sapiens, UniProt Q9Y4K4) | 91.9% |
| Cyclin-dependent kinase 1, with cyclin A (CDK1, Homo sapiens, UniProt P06493) | 102% |
| VRK1 (Homo sapiens, UniProt Q99986) | 98.3% |

Sample 2 — organism: Sarcocystis neurona; effect on: parasite growth; tested at: concentration not given; setting: second screen; reference: untreated
| SMILES | log2 fold change |
| --- | --- |
| CN1CC[C@@H](c2ccc(F)cc2)[C@H](COc2ccc3c(c2)OCO3)C1 | 0.21 |
| COc1ccc(CCN)cc1OC | 0.15 |
| C[N+]1(CCC(C(N)=O)(c2ccccc2)c2ccccc2)CCCCC1.[Br-] | 0.16 |
| CCN(CC)CCOC(=O)C(O)(c1ccccc1)c1ccccc1.Cl | 0.14 |
| CC(NC(C)(C)C)C(=O)c1cccc(Cl)c1.Cl (centres unmarked) | 0.39 |
| COc1ccc2[nH]cc(C3=CCNCC3)c2c1.O=C(O)CCC(=O)O | 0.36 |

Sample 3 — cell line: mouse MPNST tumor cells; technique: high-content immunofluorescence imaging; measured: nuclear SOX9; tested at: 10 µM; time: 12 h; setting: mean of 2 replicates; reference: DMSO control; direction: higher = more nuclear SOX9
| SMILES | nuclear SOX9 intensity |
| --- | --- |
| C[C@]12CC[C@H]3[C@@H](CC[C@@]45O[C@@H]4C(O)=C(C#N)C[C@]35C)[C@@H]1CC[C@@H]2O | 79.8 % of DMSO |
| COc1ccc(C(CN(C)C)C2(O)CCCCC2)cc1 (centres unmarked) | 113 % of DMSO and 71.5 % of DMSO |
| NCC1(CC(=O)O)CCCCC1 | 108 % of DMSO and 94.9 % of DMSO |

Sample 4 — effect on: cell-free assay; tested at: 10 µM
SMILES: C[C@H](NC(=O)Nc1cc2[nH]ncc2c(CO)n1)c1ccccn1
| target | inhibition [%] |
| --- | --- |
| OPRK1 (Homo sapiens, UniProt P41145) | 22.8 |
| CHRM1 (Homo sapiens, UniProt P11229) | -12.2 |
| OPRD1 (Homo sapiens, UniProt P41143) | 2.71 |
| OPRM1 (Homo sapiens, UniProt P35372) | -6.59 |
| DRD5 (Homo sapiens, UniProt P21918) | 7.56 |
| HTR2A (Homo sapiens, UniProt P28223) | 7.64 |
| CHRM3 (Homo sapiens, UniProt P20309) | -1.84 |

Further values, each from its own experiment — host: mouse; sample: microsomes or S9; tested at: 2 µM; time: 0.5 h
| Compound | remaining compound [%] |
| --- | --- |
| C/C(NN1CCCCCC1)=C1\C(=O)N(c2ccccc2C)C(=O)N=C1O | 10.5 |
| Cc1ccc(C2CC(c3c(O)[nH]c(=O)n(C)c3=O)=NN2)s1 (centres unmarked) | 32.1 |

For quick reference, copied from above (sample 1):
| target | remaining signal |
| --- | --- |
| PDGFRA (Homo sapiens, UniProt P16234) | 98.2% |
| DYRK2 (Homo sapiens, UniProt Q92630) | 107% |
| DYRK3 (Homo sapiens, UniProt O43781) | 101% |
| CDC42BPA (Homo sapiens, UniProt Q5VT25) | 105% |
| ARAF (Homo sapiens, UniProt P10398) | 99.2% |
